Results gathered from unrelated publications.
Every numbered part comes from another study and shows a few of its results, in no order. Changes are numbered by the printed parent chain.

Set 1 — technique: protein binding microarray; form: double-stranded DNA, one strand shown; matrix: in vitro; tested at: not given; baseline: not given; reading: higher = stronger binding
Target: Histone acetyltransferase KAT6A, winged helix 2, GST fusion (KAT6A, Homo sapiens, UniProt Q92794, residues 85-181)
Notes: 8-mer, flanks averaged, mean of 2 arrays, mostly near background
Residues (chain): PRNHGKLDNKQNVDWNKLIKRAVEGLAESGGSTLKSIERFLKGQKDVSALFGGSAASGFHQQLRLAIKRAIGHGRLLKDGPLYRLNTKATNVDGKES
| Oligonucleotide | E-score |
| --- | --- |
| GATAGCTA | -0.0283 |
| GCAATGCA | 0.0774 |
| ATGTAAAT | 0.00997 |
| GTCTAACA | -0.228 |
| CTGAACAG | 0.115 |
| CGTTAACC | -0.0759 |
| AGCGGCAG | 0.198 |
| ACACGTTA | -0.195 |
| ATTTGACA | 0.113 |
| AGGAACAC | 0.0304 |
| CAACATAG | -0.0523 |
| AATAACCA | -0.169 |
| ACGTTAAA | -0.129 |
| TAAGCCCA | -0.0476 |
| GCGAATAA | -0.0584 |
| AGTTAGAA | 0.076 |
| GAGGCTGC | 0.142 |
| ACTACATA | -0.0475 |
| ATACCTAG | -0.163 |
| CTGCTGGC | 0.0117 |
| GGAACAAC | 0.0452 |
| CGCCCAAA | 0.17 |
| ACCTTGCC | -0.0225 |
| AATCAATC | -0.00471 |
| ACCAACAC | 0.0615 |

Set 2 — target: CCND1, cyclin fold, Cln2 fusion (human); technique: yeast growth competition, sequencing; matrix: yeast; notes: weak parent motif; baseline: not given; reading: higher = stronger binding
Starting sequence: REPIN1 docking peptide (human); QSFRGWVALVLHL; partner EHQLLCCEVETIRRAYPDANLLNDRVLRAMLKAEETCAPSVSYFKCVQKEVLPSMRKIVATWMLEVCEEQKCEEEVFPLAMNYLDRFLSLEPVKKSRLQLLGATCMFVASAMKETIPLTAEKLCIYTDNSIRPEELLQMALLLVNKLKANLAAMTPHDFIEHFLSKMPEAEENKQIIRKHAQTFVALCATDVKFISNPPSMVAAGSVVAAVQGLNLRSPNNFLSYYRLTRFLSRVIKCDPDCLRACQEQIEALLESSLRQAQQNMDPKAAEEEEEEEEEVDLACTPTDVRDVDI
| Substitution | normalised enrichment score |
| --- | --- |
| QSFRGWAALVLHL [V7A] | 1.17 |
| QAFRGWVALVLHL [S2A] | 0.38 |
| QSFRGWVALVAHL [L11A] | 1.02 |
| QSARGWVALVLHL [F3A] | 0.857 |
| QSFRGAVALVLHL [W6A] | 0.213 |
| QSFRGWVAAVLHL [L9A] | 0.0706 |

Set 3 — technique: protein-binding microarray; form: double-stranded DNA, one strand shown; matrix: in vitro; tested at: 2540 nM top; notes: 60-bp whole probe; together with: salmon DNA 0.4 mg/ml; baseline: random background probes; reading: higher = stronger binding; all sequences stand within: GCCTAGCAC … GTCTTGATTCGCTTGACGCTGCTG
Target: Interferon regulatory factor 3, full length, phosphomimetic (IRF3, Homo sapiens, UniProt Q14653, residues 1-427, S386D/S396D/S398D/S402D/T404D/S405D)
UniProt Q14653, sequence (whole entry, unmodified, looked up): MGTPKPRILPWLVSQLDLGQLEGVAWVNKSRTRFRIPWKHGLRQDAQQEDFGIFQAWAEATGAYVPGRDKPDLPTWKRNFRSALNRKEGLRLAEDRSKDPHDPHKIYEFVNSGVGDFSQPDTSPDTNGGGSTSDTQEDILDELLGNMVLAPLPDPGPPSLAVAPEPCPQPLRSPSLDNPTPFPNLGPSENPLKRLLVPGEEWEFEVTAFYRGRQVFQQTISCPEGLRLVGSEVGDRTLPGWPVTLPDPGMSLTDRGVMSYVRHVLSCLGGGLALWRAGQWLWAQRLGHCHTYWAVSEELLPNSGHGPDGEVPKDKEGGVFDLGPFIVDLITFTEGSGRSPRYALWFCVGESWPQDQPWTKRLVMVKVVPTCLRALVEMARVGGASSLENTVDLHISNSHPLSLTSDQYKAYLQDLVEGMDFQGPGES
| Oligonucleotide | fitted relative affinity [z-score] |
| --- | --- |
| GACGGATTGGGGACTGGGGACGTGCTA | -0.651 |
| TTATATATCGGGTTTCGATTAGTGCTA | 2.26 |
| GACGGTTCCAGTTTCGAGACGTGCTAG | 4.36 |
| GAGGATTTCAGTTTCGAGACGTGCTAG | 4.1 |
| TTAGGTTTCGACACTAGGTTAGTGCTA | 2.46 |
| GACGGTTTCCTTTCCCAGACGTGCTAG | 9.86 |
| GACGGAGTGGGGACTGGGGACGTGCTA | -0.91 |
| TTAGGACTGGGGTTTCAGTTAGTGCTA | -0.0791 |
| GACGGACTGGGTCTCGGAACGTGCTAG | -0.485 |
| GACGGACCGGGACTGGGGACGTGCTAG | -0.712 |
| TCAGTTTCTCCTTTCCAACTGTGCTAG | 4.46 |
| GACGGACTAGGTATCGGGACGTGCTAG | 0.385 |
| GACGGTTTCGGTCTCGAGACGTGCTAG | 8.14 |
| TCACCATTTTTTTTCACACTGTGCTAG | 1.24 |
| TCAAGCTTGGGTCTGTGACTGTGCTAG | -1.09 |
| GGACACGGATGCGGTCTGCCGTGCTAG | -0.278 |
| TGAGGTCTCGGTTTCGGTTAGTGCTAG | 5.36 |
| TTAGAACTGAGTCTCGATAAGTGCTAG | -0.413 |
| TCACCGTTTCTTCTAGAACTGTGCTAG | 2.41 |

Set 4 — technique: DHFR PCA, deep sequencing; matrix: yeast; together with: (+)-ABA 200 µM; baseline: wild-type fitted maximum; reading: higher = stronger binding
Target: ABI1, truncated, D143A, DHFR fusion (Arabidopsis thaliana)
Notes: methotrexate growth selection, single substitutions
Starting sequence: PYL1, truncated, DHFR fusion (Arabidopsis thaliana); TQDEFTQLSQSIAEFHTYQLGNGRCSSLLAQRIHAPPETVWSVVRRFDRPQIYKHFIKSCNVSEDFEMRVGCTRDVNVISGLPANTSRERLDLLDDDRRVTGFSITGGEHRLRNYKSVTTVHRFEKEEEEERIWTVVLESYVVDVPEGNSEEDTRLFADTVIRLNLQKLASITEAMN; partner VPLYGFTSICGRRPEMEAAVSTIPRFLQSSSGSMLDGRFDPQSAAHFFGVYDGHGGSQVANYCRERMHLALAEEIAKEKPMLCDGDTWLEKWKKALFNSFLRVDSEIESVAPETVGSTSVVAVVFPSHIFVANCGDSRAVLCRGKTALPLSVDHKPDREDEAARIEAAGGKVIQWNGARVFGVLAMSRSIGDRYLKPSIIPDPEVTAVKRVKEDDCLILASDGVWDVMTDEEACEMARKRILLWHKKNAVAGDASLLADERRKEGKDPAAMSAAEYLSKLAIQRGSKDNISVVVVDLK
| Substitution | relative binding score |
| --- | --- |
| K168S | 98.9% |
| R32T | 101% |
| G23D | 96.4% |
| R111W | 28.6% |
| G108Q | 35.3% |
| Q31C | 55.3% |
| K168H | 97.5% |
| R24Q | 109% |
| Q167H | 95.2% |
| L166M | 86.4% |
| L82H | 24.8% |
| I133K | 109% |
| V78Q | 17.5% |
| R123I | 70% |
| P37G | 58.1% |
| T106R | 83.5% |

Excerpt of the above (set 1):
| Oligonucleotide | E-score |
| --- | --- |
| CTGAACAG | 0.115 |
| AGGAACAC | 0.0304 |
| AATAACCA | -0.169 |
| CGTTAACC | -0.0759 |
| ATGTAAAT | 0.00997 |
| TAAGCCCA | -0.0476 |
| AGTTAGAA | 0.076 |
| ATACCTAG | -0.163 |
| GGAACAAC | 0.0452 |
| ACTACATA | -0.0475 |
| GCGAATAA | -0.0584 |
